Published values collected from several papers.
Each line is one published result; not all experiments were run side by side.

Compound	test system	setting	measurement	value
OCCc1ccc(O)c(O)c1	human plasma	median	plasma concentration	0.0177 µM
CC(=O)c1c(C)c2cnc(Nc3ccc(C4CCN(CCS(C)(=O)=O)CC4)cn3)nc2n(C2CCCC2)c1=O	dog plasma	–	plasma stability t1/2	> 6.67 h
O=C(O)Cc1ccccc1	human plasma	mean, both sexes	plasma concentration	38.1 µM
CSCC[C@H](NC(=O)COCCOCCNC(=O)COCCOCCNC(=O)CC[C@H](NC(=O)CCCCCCCCCCCCCCCCC(=O)O)C(=O)O)C(=O)N[C@H]1CSSC[C@@H](C(N)=O)NC(=O)[C@H](Cc2ccccc2)NC(=O)[C@@H]2CCCN2C(=O)[C@H](Cc2c[nH]c3ccccc23)NC(=O)[C@H](CC(C)C)NC(=O)[C@H](CCSC)NC(=O)[C@H](Cc2c[nH]cn2)NC(=O)[C@H](Cc2ccccc2)NC(=O)[C@H](Cc2c[nH]cn2)NC(=O)[C@H]([C@@H](C)O)NC(=O)[C@H](Cc2ccccc2)NC1=O	human plasma	5 h, 37 °C	plasma stability	stable
Clc1ccc(C(c2ccccc2Cl)C(Cl)Cl)cc1 (stereo not drawn)	human, plasma	sixteen days after treatment end	plasma concentration	12000 ng/mL
CNc1cc[n+](CC(=O)Nc2ccc3c(c2)ncn3-c2c(C)noc2C)cc1.O=C[O-]	human plasma	–	plasma stability	stable
N#C[C@@]1(n2ccc(N)nc2=O)O[C@H](CO)[C@@H](O)[C@H]1O	human plasma	10 µM, 37 °C	plasma stability time	≥ 2 h
CC[C@H](C)CCCCC(=O)N[C@@H](CCN)C(=O)N[C@H](C(=O)N[C@@H](CCN)C(=O)N[C@H]1CCNC(=O)[C@H]([C@@H](C)O)NC(=O)[C@H](CCN)NC(=O)[C@H](CCN)NC(=O)[C@H](CC(C)C)NC(=O)[C@@H](Cc2ccccc2)NC(=O)[C@H](CCN)NC1=O)[C@@H](C)O	critically ill patients, plasma	intravenous, dose not given, 6 h, steady state, Moderate AUC group, median	plasma concentration at 6 h	2300 ng/mL
CC(C)C[C@@H]1NC(=O)[C@H](CC(=O)O)NC(=O)[C@H](Cc2ccccc2)NC(=O)[C@H](Cc2c[nH]cn2)NC(=O)[C@H]([C@@H](C)O)NC(=O)[C@H](Cc2ccccc2)NC(=O)[C@@H](NC(=O)[C@H](C)NC(=O)COCCOCCNC(=O)COCCOCCNC(=O)CC[C@H](NC(=O)CCCCCCCCCCCCCCCCC(=O)O)C(=O)O)CSSC[C@@H](C(=O)O)NC(=O)[C@H](Cc2ccccc2)NC(=O)[C@@H]2CCCN2C(=O)[C@H](Cc2c[nH]c3ccccc23)NC(=O)[C@H](CC(C)C)NC1=O	human plasma	5 h, 37 °C	plasma stability	stable
COC(=O)N[C@H](C(=O)N1CCC[C@H]1c1nc(-c2ccc3c(c2)O[C@@H](c2ccccc2)n2c-3cc3cc(-c4c[nH]c([C@@H]5CCCN5C(=O)[C@@H](NC(=O)OC)C(C)C)n4)ccc32)c[nH]1)C(C)C	human K2EDTA plasma	-20 °C	plasma stability	≥ 21 months
CC(=O)N[C@@H](C)C(=O)N[C@H]1CSSC[C@@H](C(=O)NCC(=O)N[C@@H](CO)C(=O)NCC(=O)N[C@@H](CO)C(=O)N[C@@H](CC(=O)O)C(=O)N[C@@H](Cc2ccc(O)cc2)C(=O)N[C@@H](CCCCN)C(=O)N[C@@H](CC(=O)O)C(=O)N[C@@H](CC(=O)O)C(=O)N[C@@H](CC(=O)O)C(=O)N[C@@H](CC(=O)O)C(=O)N[C@@H](CCCCN)C(N)=O)NC(=O)[C@H](Cc2ccccc2)NC(=O)[C@@H]2CCCN2C(=O)[C@H](Cc2c[nH]c3ccccc23)NC(=O)[C@H](CC(C)C)NC(=O)[C@H](CC(C)C)NC(=O)[C@H](CC(=O)O)NC(=O)[C@H](Cc2ccccc2)NC(=O)[C@H](Cc2c[nH]cn2)NC(=O)[C@H]([C@@H](C)O)NC(=O)[C@H](Cc2ccccc2)NC1=O	human plasma	5 h, 37 °C	plasma stability	stable
CC(c1cncnc1)n1c(=S)[nH]c2ccc(Cl)cc2c1=O (stereo not drawn)	mouse plasma	concentration not given	plasma stability	95 to 98.7%

A few entries again:
Compound	test system	setting	measurement	value
CC(C)C[C@@H]1NC(=O)[C@H](CC(=O)O)NC(=O)[C@H](Cc2ccccc2)NC(=O)[C@H](Cc2c[nH]cn2)NC(=O)[C@H]([C@@H](C)O)NC(=O)[C@H](Cc2ccccc2)NC(=O)[C@@H](NC(=O)[C@H](C)NC(=O)COCCOCCNC(=O)COCCOCCNC(=O)CC[C@H](NC(=O)CCCCCCCCCCCCCCCCC(=O)O)C(=O)O)CSSC[C@@H](C(=O)O)NC(=O)[C@H](Cc2ccccc2)NC(=O)[C@@H]2CCCN2C(=O)[C@H](Cc2c[nH]c3ccccc23)NC(=O)[C@H](CC(C)C)NC1=O	human plasma	5 h, 37 °C	plasma stability	stable
O=C(O)Cc1ccccc1	human plasma	mean, both sexes	plasma concentration	38.1 µM
